Results of several laboratories.
B1: acpP crypto-AcpP 1-78 (Escherichia coli, UniProt P0A6A8); Ser36 phosphopantetheine fluorophore analog; chain MSTIEERVKKIIGEQLGVKQEEVTNNASFVEDLGADSLDTVELVMALEEEFDTEIPDEEAEKITTVQAAIDYINGHQA
B2: rde-4 (Caenorhabditis elegans, UniProt G5EBF5); chain MDLTKLTFESVFGGSDVPMKPSRSEDNKTPRNRTDLEMFLKKTPLMVLEEAAKAVYQKTPTWGTVELPEGFEMTLILNEITVKGQATSKKAARQKAAVEYLRKVVEKGKHEIFFIPGTTKEEALSNIDQISDKAEELKRSTSDAVQDNDNDDSIPTSAEFPPGISPTENWVGKLQEKSQKSKLQAPIYEDSKNERTERFLVICTMCNQKTRGIRSKKKDAKNLAAWLMWKALEDGIESLESYDMVDVIENLEEAEHLLEIQDQASKIKDKHSALIDILSDKKRFSDYSMDFNVLSVSTMGIHQVLLEISFRRLVSPDPDDLEMGAEHTQTEEIMKATAEKEKLRKKNMPDSGPLVFAGHGSSAEEAKQCACKSAIIHFNTYDFTD
B3: TFC6 1-672 (Saccharomyces cerevisiae, UniProt Q06339); chain MAVIPAKKRGRPRKSVVAEVPYDSLASPVSENSGSKRPRRNASKKAVANFAQLVHAGRDDVINTTQVNNVDDTDDDDFVLNDEGDGEESDNVEIEFENELESTKNEVADLNSSGSGASVRPSGRRNTVQKLRLKKNSTKNMKSSSPGSSLGQKGRPIRLLKDLSSARDKIERIYGLNKEKLLLLAKVKEGFETSVFDFPFKNIQPDSPYFVCLDPPCKKESAYNKVIGDKNRTVYHEINKTEFENMIKLRTKRLKLLIGEVDAEVSTGDKIEFPVLANGKRRGFIYNVGGLVTDIAWLNIEENTDIGKDIQYLAVAVSQYMDEPLNEHLEMFDKEKHSSCIQIFKMNTSTLHCVKVQTIVHSFGEVWDLKWHEGCHAPHLVGCLSFVSQEGTINFLEIIDNATDVHVFKMCEKPSLTLSLADSLITTFDFLSPTTVVCGFKNGFVAEFDLTDPEVPSFYDQVHDSYILSVSTAYSDFEDTVVSTVAVDGYFYIFNPKDIATTKTTVSRFRGSNLVPVVYCPQIYSYIYSDGASSLRAVPSRAAFAVHPLVSRETTITAIGVSRLHPMVLAGSADGSLIITNAARRLLHGIKNSSATQKSLRLWKWDYSIKDDKYRIDSSYEVYPLTVNDVSKAKIDAHGINITCTKWNETSAGGKCYAFSNSAGLLTLEYLS
B4: NUP60 200-318 (Saccharomyces cerevisiae, UniProt P39705); sequence looked up; chain SMNTTLGSIGSRKYSFNYSSLPSPYKTTVYRYSAAKKIPDTYTANTSAQSIASAKSVRSGVSKSAPSKKISNTAAALVSLLDENDSKKNNAASELANPYSSYVSQIRKHKRVSPNAAPR
B5: JARID2 119-232 (Homo sapiens, UniProt Q92833); sequence looked up; chain QSQPNSPSTTPVKIVEPLLPPPATQISDLSKRKPKTEDFLTFLCLRGSPALPNSMVYFGSSQDEEEVEEEDDETEDVKTATNNASSSCQSTPRKGKTHKHVHNGHVFNGSSRST
B6: BAP1 1-240 (Homo sapiens, UniProt Q92560); sequence looked up; chain MNKGWLELESDPGLFTLLVEDFGVKGVQVEEIYDLQSKCQGPVYGFIFLFKWIEERRSRRKVSTLVDDTSVIDDDIVNNMFFAHQLIPNSCATHALLSVLLNCSSVDLGPTLSRMKDFTKGFSPESKGYAIGNAPELAKAHNSHARPEPRHLPEKQNGLSAVRTMEAFHFVSYVPITGRLFELDGLKVYPIDHGPWGEDEEWTDKARRVIMERIGLATAGEPYHDIRFNLMAVVPDRRIK
B7: MAP1LC3C (Homo sapiens, UniProt Q9BXW4); chain MPPPQKIPSVRPFKQRKSLAIRQEEVAGIRAKFPNKIPVVVERYPRETFLPPLDKTKFLVPQELTMTQFLSIIRSRMVLRATEAFYLLVNNKSLVSMSATMAEIYRDYKDEDGFVYMTYASQETFG
B8: tnsD 1-318 E35A (Escherichia coli, UniProt P13991); sequence looked up; chain MRNFPVPYSNELIYSTIARAGVYQGIVSPKQLLDAVYGNRKVVATLGLPSHLGVIARHLHQTGRYAVQQLIYEHTLFPLYAPFVGKERRDEAIRLMEYQAQGAVHLMLGVAASRVKSDNRFRYCPDCVALQLNRYGEAFWQRDWYLPALPYCPKHGALVFFDRAVDDHRHQFWALGHTELLSDYPKDSLSQLTALAAYIAPLLDAPRAQELSPSLEQWTLFYQRLAQDLGLTKSKHIRHDLVAERVRQTFSDEALEKLDLKLAENKDTCWLKSIFRKHRKAFSYLQHSIVWQALLPKLTVIEALQQASALTEHSITTR
B9: PSMD10 1-226 L209R (Homo sapiens, UniProt O75832); chain MEGCVSNLMVCNLAYSGKLEELKESILADKSLATRTDQDSRTALHWACSAGHTEIVEFLLQLGVPVNDKDDAGWSPLHIAASAGRDEIVKALLGKGAQVNAVNQNGCTPLHYAASKNRHEIAVMLLEGGANPDAKDHYEATAMHRAAAKGNLKMIHILLYYKASTNIQDTEGNTPLHLACDEERVEEAKLLVSQGASIYIENKEEKTPRQVAKGGLGLILKRMVEG
B10: POL30 1-258 (Saccharomyces cerevisiae, UniProt P15873); chain MLEAKFEEASLFKRIIDGFKDCVQLVNFQCKEDGIIAQAVDDSRVLLVSLEIGVEAFQEYRCDHPVTLGMDLTSLSKILRCGNNTDTLTLIADNTPDSIILLFEDTKKDRIAEYSLKLMDIDADFLKIEELQYDSTLSLPSSEFSKIVRDLSQLSDSINIMITKETIKFVADGDIGSGSVIIKPFVDMEHPETSIKLEMDQPVDLTFGAKYLLDIIKGSSLSDRVGIRLSSEAPALFQFDLKSGFLQFFLAPKFNDEE
B11: lptC 24-191 (Escherichia coli, UniProt P0ADV9); sequence looked up; chain MAEKDDTAQVVVNNNDPTYKSEHTDTLVYNPEGALSYRLIAQHVEYYSDQAVSWFTQPVLTTFDKDKIPTWSVKADKAKLTNDRMLYLYGHVEVNALVPDSQLRRITTDNAQINLVTQDVTSEDLVTLYGTTFNSSGLKMRGNLRSKNAELIEKVRTSYEIQNKQTQP
B12: NOTCH2 221-530 (Homo sapiens, UniProt Q04721); sequence looked up; chain LYVPCAPSPCVNGGTCRQTGDFTFECNCLPGFEGSTCERNIDDCPNHRCQNGGVCVDGVNTYNCRCPPQWTGQFCTEDVDECLLQPNACQNGGTCANRNGGYGCVCVNGWSGDDCSENIDDCAFASCTPGSTCIDRVASFSCMCPEGKAGLLCHLDDACISNPCHKGALCDTNPLNGQYICTCPQGYKGADCTEDVDECAMANSNPCEHAGKCVNTDGAFHCECLKGYAGPRCEMDINECHSDPCQNDATCLDKIGGFTCLCMPGFKGVHCELEINECQSNPCVNNGQCVDKVNRFQCLCPPGFTGPVCQ
B13: MAPRE1 K174Q (Homo sapiens, UniProt Q15691); sequence looked up; chain MAVNVYSTSVTSDNLSRHDMLAWINESLQLNLTKIEQLCSGAAYCQFMDMLFPGSIALKKVKFQAKLEHEYIQNFKILQAGFKRMGVDKIIPVDKLVKGKFQDNFEFVQWFKKFFDANYDGKDYDPVAARQGQETAVAPSLVAPALNKPKKPLTSSSAAPQRPISTQRTAAAPQAGPGVVRKNPGVGNGDDEAAELMQQVNVLKLTVEDLEKERDFYFGKLRNIELICQENEGENDPVLQRIVDILYATDEGFVIPDEGGPQEEQEEY
B14: rga7 33-307 (Schizosaccharomyces pombe, UniProt O94466); sequence looked up; chain PKVEAILNSELGLAILNDRIKDYLLTCKELAGFFKKRSILEEESGKNLQKLAKSYLETFQSKHHSPQSFSASVITSMEIHEQLANHSLTLQKTLSAFSDQVIEFHKNAERKRKSIKEYAKKQENAYLEAVMQMDKSKSRFKGAETEYNRALDNKNTGDSQKKVGFFKPKSNAQLTKLEDEARLKAENAESDMHSKIENAQNVQKQLLCIHRPNYIKQFFSLQREIESSLIANYLRYTKLCESNTLLNGLTIRPQKPTPTNCGLQHALDNINANTD
B15: pduC (Salmonella enterica, UniProt P37450); sequence looked up; chain MRSKRFEALAKRPVNQDGFVKEWIEEGFIAMESPNDPKPSIKIVNGAVTELDGKPVSEFDLIDHFIARYGINLNRAEEVMAMDSVKLANMLCDPNVKRSEIVPLTTAMTPAKIVEVVSHMNVVEMMMAMQKMRARRTPSQQAHVTNVKDNPVQIAADAAEGAWRGFDEQETTVAVARYAPFNAIALLVGSQVGRPGVLTQCSLEEATELKLGMLGHTCYAETISVYGTEPVFTDGDDTPWSKGFLASSYASRGLKMRFTSGSGSEVQMGYAEGKSMLYLEARCIYITKAAGVQGLQNGSVSCIGVPSAVPSGIRAVLAENLICSSLDLECASSNDQTFTHSDMRRTARLLMQFLPGTDFISSGYSAVPNYDNMFAGSNEDAEDFDDYNVIQRDLKVDGGLRPVREEDVIAIRNKAARALQAVFAGMGLPPITDEEVEAATYAHGSKDMPERNIVEDIKFAQEIINKNRNGLEVVKALAQGGFTDVAQDMLNIQKAKLTGDYLHTSAIIVGDGQVLSAVNDVNDYAGPATGYRLQGERWEEIKNIPGALDPNEID
B16: RAD17 1-401 (Saccharomyces cerevisiae, UniProt P48581); chain MRINSELANKFSASTVHLEHITTALSCLTPFGSKDDVLIFIDADGLSFVRENNHVIKIQLLLSRELFMSYSYRNETEDHMKLCVKINHILDSVSVMNRNSDDIVECTLSYDGHGSPFVLIFEDSFISERVEYSTYLIKDFDTNGLELDRERISFEAIIKGEALHSALKDLKEIGCKECYVYAKTEANDENVFALISKSQLGFSKIKLPSNRSILEKLQVFDGDSTTVIDGFAVIGFFDFTSFDKIRKSTKIASKVLFRMDVHGVLSVNILSQTDDVIITDTTRPSNNRPGSIRQLQLPKDYPGIVIEVCMLEKESIDEAAQTEIELLMETNELGNRNSFKKSTIRKRYGTDKGNETSNDNLLQLNGKKIKLPSEEENNKNRESEDEENHCKYPTKDIPIFF
B17: HDAC2 1-322 (Homo sapiens, UniProt Q92769); sequence looked up; chain MAYSQGGGKKKVCYYYDGDIGNYYYGQGHPMKPHRIRMTHNLLLNYGLYRKMEIYRPHKATAEEMTKYHSDEYIKFLRSIRPDNMSEYSKQMQRFNVGEDCPVFDGLFEFCQLSTGGSVAGAVKLNRQQTDMAVNWAGGLHHAKKSEASGFCYVNDIVLAILELLKYHQRVLYIDIDIHHGDGVEEAFYTTDRVMTVSFHKYGEYFPGTGDLRDIGAGKGKYYAVNFPMRDGIDDESYGQIFKPIISKVMEMYQPSAVVLQCGADSLSGDRLGCFNLTVKGHAKCVEVVKTFNLPLLMLGGGGYTIRNVARCWTYETAVALD
Sequence of UniProt P32562 (whole entry, looked up): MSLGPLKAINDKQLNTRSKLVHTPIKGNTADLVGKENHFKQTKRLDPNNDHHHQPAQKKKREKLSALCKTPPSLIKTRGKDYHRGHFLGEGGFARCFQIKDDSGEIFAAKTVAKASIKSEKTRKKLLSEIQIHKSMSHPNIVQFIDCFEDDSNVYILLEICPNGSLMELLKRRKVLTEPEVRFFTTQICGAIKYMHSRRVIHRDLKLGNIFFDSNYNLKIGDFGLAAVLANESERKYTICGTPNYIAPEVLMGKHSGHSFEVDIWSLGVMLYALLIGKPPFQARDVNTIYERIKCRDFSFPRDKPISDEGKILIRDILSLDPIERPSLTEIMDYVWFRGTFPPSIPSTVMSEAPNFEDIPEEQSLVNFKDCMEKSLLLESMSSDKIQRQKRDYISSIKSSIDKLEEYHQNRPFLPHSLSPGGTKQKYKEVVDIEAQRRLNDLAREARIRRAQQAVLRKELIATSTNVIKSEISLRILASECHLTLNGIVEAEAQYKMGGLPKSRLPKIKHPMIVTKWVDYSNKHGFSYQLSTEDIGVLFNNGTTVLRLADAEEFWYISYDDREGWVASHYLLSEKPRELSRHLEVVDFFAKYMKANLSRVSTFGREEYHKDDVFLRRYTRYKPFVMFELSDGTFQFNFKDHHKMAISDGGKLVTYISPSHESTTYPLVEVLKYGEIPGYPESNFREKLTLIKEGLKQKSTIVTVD
Sequence of UniProt P05846 (whole entry, looked up): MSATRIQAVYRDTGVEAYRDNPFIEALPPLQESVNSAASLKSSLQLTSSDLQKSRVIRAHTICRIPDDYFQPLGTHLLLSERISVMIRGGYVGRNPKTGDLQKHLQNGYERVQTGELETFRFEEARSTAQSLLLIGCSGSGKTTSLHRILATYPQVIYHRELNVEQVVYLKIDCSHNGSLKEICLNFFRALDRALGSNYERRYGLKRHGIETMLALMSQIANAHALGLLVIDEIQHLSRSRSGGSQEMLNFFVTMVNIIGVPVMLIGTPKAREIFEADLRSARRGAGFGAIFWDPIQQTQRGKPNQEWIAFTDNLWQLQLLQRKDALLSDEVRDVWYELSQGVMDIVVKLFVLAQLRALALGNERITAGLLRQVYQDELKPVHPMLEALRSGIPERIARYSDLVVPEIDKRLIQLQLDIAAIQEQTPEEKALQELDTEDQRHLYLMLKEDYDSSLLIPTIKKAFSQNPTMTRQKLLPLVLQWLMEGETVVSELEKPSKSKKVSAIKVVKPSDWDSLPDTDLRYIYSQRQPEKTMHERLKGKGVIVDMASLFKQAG
Sequence of UniProt P34529 (whole entry, looked up): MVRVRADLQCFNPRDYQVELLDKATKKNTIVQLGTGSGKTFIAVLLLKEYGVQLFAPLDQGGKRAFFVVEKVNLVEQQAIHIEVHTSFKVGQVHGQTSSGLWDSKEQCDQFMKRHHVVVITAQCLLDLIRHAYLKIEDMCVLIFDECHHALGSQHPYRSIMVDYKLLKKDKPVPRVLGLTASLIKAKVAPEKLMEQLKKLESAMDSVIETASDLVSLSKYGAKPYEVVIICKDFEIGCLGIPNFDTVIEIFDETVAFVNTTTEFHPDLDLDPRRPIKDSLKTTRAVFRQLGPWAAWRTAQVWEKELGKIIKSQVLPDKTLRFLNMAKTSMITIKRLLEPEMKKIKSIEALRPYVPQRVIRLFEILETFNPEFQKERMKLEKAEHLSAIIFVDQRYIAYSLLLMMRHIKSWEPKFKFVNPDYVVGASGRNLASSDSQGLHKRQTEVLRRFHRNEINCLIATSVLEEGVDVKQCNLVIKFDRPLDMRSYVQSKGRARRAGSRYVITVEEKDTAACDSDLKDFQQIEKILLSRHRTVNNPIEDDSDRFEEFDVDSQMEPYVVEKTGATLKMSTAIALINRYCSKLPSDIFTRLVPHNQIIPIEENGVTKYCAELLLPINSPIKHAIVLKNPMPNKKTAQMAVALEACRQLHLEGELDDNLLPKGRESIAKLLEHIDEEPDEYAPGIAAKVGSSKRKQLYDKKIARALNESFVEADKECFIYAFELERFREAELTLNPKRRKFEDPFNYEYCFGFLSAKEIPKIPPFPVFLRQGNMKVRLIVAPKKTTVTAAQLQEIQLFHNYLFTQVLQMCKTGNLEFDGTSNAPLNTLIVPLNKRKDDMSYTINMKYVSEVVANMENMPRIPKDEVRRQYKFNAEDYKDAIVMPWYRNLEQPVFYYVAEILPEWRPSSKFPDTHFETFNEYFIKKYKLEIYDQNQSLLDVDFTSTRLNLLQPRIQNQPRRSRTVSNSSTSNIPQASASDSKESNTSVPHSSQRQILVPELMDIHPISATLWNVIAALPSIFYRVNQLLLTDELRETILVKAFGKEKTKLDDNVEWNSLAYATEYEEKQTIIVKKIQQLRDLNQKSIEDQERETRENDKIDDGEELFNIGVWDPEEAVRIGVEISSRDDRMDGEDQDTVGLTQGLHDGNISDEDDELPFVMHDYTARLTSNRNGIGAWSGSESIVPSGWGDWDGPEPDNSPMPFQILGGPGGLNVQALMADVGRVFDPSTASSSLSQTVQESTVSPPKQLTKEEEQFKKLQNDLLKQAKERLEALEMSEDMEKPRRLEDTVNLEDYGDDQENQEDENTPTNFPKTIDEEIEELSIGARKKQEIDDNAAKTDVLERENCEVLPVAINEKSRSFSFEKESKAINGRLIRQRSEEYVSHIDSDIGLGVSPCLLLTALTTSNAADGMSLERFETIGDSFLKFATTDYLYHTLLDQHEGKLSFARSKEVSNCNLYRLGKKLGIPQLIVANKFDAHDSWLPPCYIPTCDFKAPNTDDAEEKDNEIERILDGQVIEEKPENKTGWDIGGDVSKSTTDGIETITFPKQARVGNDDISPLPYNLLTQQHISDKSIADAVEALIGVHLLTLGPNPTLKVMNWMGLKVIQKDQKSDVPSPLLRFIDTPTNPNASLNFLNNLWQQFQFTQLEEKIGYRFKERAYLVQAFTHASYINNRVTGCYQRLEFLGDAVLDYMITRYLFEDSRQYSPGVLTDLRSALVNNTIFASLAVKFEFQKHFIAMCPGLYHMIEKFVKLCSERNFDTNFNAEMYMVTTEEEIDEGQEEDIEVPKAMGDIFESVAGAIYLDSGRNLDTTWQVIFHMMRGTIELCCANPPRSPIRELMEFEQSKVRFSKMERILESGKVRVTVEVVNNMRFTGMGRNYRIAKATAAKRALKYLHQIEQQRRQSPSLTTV
Sequence of UniProt Q7Z4Q2 (whole entry, looked up): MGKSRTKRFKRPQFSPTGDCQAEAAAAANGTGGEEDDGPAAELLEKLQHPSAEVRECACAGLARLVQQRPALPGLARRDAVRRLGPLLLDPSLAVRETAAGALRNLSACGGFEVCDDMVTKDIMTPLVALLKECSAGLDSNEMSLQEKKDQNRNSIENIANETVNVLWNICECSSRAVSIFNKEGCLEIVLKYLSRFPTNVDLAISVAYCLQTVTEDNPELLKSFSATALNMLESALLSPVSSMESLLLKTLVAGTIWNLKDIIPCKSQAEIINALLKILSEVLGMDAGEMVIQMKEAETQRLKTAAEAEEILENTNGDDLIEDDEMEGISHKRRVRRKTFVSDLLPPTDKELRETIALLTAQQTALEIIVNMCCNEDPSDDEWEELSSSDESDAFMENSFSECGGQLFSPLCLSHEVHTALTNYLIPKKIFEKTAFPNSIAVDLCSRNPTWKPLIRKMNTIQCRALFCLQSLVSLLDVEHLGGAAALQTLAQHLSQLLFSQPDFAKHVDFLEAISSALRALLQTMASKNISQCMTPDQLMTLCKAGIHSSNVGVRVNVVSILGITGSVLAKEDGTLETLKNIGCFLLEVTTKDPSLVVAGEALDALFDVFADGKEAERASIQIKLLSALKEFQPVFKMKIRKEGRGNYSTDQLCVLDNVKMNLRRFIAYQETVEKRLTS
Sequence of UniProt P23804 (whole entry, looked up): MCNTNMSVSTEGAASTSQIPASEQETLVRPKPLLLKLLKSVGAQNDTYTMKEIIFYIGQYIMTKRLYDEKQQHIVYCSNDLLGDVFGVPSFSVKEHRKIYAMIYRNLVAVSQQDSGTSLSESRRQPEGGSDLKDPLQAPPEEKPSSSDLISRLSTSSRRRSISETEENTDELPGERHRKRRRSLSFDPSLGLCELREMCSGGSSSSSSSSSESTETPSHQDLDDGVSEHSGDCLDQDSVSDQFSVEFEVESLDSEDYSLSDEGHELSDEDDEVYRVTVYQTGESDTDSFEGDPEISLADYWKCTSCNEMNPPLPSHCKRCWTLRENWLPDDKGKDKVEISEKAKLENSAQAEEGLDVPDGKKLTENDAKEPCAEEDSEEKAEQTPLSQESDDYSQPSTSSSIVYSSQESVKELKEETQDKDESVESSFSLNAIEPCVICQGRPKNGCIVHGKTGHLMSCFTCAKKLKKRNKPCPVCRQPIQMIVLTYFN
Sequence of UniProt Q04049 (whole entry, looked up): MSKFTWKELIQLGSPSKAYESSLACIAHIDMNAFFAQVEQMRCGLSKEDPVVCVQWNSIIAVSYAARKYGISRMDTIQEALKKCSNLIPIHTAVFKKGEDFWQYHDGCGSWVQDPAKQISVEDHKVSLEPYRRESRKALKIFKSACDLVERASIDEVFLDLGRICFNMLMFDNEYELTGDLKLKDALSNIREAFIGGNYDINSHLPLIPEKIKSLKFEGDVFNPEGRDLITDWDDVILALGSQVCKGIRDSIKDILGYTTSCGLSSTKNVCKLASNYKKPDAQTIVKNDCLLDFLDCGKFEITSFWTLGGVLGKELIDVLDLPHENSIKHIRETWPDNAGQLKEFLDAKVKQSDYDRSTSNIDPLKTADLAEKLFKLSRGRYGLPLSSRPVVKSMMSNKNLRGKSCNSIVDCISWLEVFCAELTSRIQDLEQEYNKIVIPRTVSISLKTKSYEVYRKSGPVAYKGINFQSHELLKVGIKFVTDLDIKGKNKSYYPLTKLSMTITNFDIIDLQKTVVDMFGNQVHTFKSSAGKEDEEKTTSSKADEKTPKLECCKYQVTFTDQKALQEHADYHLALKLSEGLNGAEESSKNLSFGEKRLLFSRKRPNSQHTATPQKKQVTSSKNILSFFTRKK

`B1 (acpP crypto-AcpP 1-78)` — result for binding: “binds” (fabF 1-413 (Escherichia coli, UniProt P0AAI5); fluorescence emission spectra, solvatochromic probe).
Under binding, `B2 (rde-4)` is recorded as “binds” (dcr-1 (Caenorhabditis elegans, UniProt P34529); mass photometry).
`B3 (TFC6 1-672)`: binding “binds” (TFC3 1-1160 (Saccharomyces cerevisiae, UniProt P34111); cryo-EM).
Under binding, `B4 (NUP60 200-318)` is recorded as “binds” (NUP133/NUP84/SEC13/NUP145/SEH1/NUP85/NUP120 (Saccharomyces cerevisiae); pull-down).
Under binding, `B5 (JARID2 119-232)` is recorded as “binds” (SUZ12/RBBP4 SUZ12 76-545 (Homo sapiens); pull-down; competition).
Under binding, `B6 (BAP1 1-240)` is recorded as “binds” (UFL1 (Homo sapiens, UniProt O94874); pull-down).
`B7 (MAP1LC3C)`: binding “binds” (HEATR3 (Homo sapiens, UniProt Q7Z4Q2); pull-down).
For `C9orf78 (Homo sapiens, UniProt Q9NZ63)`, binding read “binds” (FAM50A (Homo sapiens, UniProt Q14320); pull-down).
For `B8 (tnsD 1-318 E35A)`, binding read “binds” (tnsC 1-503 (Escherichia coli, UniProt P05846); dynamic light scattering; with: ATP).
Under binding, `B9 (PSMD10 1-226 L209R)` is recorded as “binds” (Mdm2 (Mus musculus, UniProt P23804); pull-down).
`KESALRKQDLLLEFDPLFR (TACC3 to 568 550-568 S558D/Y560L/K562E/L567F (Homo sapiens, UniProt Q9Y6A5); sequence looked up)` — result for binding: “binds” (CLTC 358-574 (Homo sapiens, UniProt Q00610); peptide array; peptide).
Under binding, `B10 (POL30 1-258)` is recorded as “binds” (RAD30 (Saccharomyces cerevisiae, UniProt Q04049); ELISA).
`CDC5 (Saccharomyces cerevisiae, UniProt P32562)`: binding “binds” (STU2 (Saccharomyces cerevisiae, UniProt P46675); pull-down).
For `B11 (lptC 24-191)`, binding read “binds” (LptB2FG C204A/C28S/C91T, MTSL spin label (Escherichia coli, UniProt P0A9V1); CW EPR spectroscopy; in nanodiscs).
For `B12 (NOTCH2 221-530)`, binding read “binds” (DLL4 27-400 N257P/T271L/F280Y/S301R/Q305P (Homo sapiens, UniProt Q9NR61); SPR).
Under binding, `B13 (MAPRE1 K174Q)` is recorded as “binds” (MAPRE1 (Homo sapiens, UniProt Q15691); pull-down).
For `B14 (rga7 33-307)`, binding read “binds” (rga8 1-420 (Schizosaccharomyces pombe, UniProt Q09697); pull-down).
`B15 (pduC)` — result for binding: “binds” (PduG (Salmonella enterica Typhimurium LT2, UniProt O31043); cross-linking).
For `B16 (RAD17 1-401)`, binding read “binds” (MEC3 (Saccharomyces cerevisiae, UniProt Q02574); cryo-EM).
For `B17 (HDAC2 1-322)`, binding read “binds” (KAT7 (Homo sapiens, UniProt O95251); pull-down).

Some of these lines once more:
`CDC5 (Saccharomyces cerevisiae, UniProt P32562)`: binding “binds” (STU2 (Saccharomyces cerevisiae, UniProt P46675); pull-down).
Under binding, `B5 (JARID2 119-232)` is recorded as “binds” (SUZ12/RBBP4 SUZ12 76-545 (Homo sapiens); pull-down; competition).
`B7 (MAP1LC3C)`: binding “binds” (HEATR3 (Homo sapiens, UniProt Q7Z4Q2); pull-down).
